Experimental data gathered from unrelated publications.
Lines come from different studies, so protocols differ.
CA12: Carbonic anhydrase 12 (CA12, Homo sapiens, UniProt O43570)
UniProt O43570, sequence (whole entry, looked up): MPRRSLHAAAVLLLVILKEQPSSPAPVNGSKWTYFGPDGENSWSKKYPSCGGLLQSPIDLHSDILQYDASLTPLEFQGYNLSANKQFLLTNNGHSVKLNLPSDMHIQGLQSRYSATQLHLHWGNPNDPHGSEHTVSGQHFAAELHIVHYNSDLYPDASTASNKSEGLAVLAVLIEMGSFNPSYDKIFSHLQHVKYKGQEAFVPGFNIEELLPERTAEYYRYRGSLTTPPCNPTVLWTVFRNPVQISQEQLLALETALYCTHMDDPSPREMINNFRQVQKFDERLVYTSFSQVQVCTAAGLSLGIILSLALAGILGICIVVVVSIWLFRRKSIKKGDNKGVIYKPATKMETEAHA
PFF0160c: Dihydroorotate dehydrogenase (quinone), mitochondrial (PFF0160c, Plasmodium falciparum, UniProt Q08210)
UniProt P55786, sequence (whole entry, looked up): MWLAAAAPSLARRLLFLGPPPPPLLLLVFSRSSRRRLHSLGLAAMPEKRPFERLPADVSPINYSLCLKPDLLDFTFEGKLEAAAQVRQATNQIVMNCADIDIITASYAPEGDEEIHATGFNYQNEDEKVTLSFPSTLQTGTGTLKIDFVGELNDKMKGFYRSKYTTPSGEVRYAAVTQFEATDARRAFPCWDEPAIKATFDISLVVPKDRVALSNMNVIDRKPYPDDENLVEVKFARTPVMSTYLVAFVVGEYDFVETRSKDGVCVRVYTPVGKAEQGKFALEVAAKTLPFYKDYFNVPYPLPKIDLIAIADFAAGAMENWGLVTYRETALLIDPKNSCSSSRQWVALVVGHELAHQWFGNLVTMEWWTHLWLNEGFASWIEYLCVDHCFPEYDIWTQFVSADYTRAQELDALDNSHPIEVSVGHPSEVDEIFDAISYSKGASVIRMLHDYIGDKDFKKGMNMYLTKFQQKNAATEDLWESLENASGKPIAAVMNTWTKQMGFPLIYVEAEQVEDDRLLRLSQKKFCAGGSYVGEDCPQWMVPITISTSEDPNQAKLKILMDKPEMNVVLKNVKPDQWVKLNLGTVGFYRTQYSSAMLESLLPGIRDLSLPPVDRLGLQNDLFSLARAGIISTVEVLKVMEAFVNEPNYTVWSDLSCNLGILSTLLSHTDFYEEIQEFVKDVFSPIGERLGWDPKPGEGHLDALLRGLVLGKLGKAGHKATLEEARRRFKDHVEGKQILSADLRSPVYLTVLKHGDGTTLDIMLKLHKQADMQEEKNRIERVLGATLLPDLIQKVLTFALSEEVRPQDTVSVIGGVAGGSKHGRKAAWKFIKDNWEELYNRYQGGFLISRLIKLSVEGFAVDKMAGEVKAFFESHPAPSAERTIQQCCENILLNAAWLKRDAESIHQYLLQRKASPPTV
UniProt O15245, sequence (whole entry, looked up): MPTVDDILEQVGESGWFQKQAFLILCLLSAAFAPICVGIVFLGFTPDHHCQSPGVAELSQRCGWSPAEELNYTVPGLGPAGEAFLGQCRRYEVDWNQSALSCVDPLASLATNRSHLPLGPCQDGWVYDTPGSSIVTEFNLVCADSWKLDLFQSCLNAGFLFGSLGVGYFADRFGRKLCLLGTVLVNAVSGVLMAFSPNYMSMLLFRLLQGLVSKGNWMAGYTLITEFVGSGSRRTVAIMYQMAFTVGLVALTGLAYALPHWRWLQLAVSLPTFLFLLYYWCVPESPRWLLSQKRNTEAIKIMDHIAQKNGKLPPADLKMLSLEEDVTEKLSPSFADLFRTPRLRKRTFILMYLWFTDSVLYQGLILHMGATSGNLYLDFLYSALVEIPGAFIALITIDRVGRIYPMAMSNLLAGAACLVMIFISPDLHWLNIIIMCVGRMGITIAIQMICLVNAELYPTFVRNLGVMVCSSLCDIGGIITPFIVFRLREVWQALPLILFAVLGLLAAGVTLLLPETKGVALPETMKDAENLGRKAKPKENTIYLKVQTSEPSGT
UniProt Q16513, sequence (whole entry, looked up): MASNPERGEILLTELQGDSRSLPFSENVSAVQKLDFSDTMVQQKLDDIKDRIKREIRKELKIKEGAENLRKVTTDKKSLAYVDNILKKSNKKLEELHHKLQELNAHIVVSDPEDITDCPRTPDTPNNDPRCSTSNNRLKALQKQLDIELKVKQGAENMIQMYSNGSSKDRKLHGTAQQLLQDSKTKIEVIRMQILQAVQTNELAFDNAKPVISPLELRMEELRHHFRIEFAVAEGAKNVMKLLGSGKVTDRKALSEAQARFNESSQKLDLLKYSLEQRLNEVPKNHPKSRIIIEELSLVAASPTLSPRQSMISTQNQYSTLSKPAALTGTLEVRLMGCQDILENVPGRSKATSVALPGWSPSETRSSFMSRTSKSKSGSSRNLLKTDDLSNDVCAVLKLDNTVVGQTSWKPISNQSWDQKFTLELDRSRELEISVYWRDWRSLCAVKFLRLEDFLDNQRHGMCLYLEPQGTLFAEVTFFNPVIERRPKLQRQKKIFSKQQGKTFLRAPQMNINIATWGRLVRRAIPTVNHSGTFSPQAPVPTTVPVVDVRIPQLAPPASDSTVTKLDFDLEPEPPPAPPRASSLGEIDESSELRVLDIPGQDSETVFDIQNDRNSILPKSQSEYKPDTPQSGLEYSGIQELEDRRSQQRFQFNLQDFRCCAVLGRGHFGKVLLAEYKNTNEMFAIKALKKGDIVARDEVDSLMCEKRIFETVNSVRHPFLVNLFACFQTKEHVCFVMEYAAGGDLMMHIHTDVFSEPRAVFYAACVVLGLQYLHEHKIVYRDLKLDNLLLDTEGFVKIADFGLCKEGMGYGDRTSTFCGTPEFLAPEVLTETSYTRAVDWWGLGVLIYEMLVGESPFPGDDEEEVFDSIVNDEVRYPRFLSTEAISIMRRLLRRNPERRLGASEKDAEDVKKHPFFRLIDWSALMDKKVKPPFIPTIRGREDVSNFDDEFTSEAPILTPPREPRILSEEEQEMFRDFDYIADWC
UniProt Q61327, sequence (whole entry, looked up): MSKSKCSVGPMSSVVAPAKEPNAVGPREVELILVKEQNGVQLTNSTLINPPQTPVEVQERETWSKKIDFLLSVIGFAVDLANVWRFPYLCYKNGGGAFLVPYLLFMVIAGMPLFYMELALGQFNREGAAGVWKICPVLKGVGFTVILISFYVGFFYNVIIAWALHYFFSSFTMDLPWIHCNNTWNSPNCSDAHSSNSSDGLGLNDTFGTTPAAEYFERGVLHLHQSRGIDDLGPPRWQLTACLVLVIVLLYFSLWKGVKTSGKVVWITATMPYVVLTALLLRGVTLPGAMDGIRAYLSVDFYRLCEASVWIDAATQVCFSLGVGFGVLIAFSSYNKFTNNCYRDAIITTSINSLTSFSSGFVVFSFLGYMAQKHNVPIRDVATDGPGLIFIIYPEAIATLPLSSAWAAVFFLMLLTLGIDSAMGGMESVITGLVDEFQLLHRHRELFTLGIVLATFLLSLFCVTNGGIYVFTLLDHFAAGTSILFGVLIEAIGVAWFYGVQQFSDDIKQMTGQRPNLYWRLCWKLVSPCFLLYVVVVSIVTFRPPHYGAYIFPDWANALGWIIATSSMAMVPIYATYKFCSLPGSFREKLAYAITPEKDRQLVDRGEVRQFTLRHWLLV
UniProt P28335, sequence (whole entry, looked up): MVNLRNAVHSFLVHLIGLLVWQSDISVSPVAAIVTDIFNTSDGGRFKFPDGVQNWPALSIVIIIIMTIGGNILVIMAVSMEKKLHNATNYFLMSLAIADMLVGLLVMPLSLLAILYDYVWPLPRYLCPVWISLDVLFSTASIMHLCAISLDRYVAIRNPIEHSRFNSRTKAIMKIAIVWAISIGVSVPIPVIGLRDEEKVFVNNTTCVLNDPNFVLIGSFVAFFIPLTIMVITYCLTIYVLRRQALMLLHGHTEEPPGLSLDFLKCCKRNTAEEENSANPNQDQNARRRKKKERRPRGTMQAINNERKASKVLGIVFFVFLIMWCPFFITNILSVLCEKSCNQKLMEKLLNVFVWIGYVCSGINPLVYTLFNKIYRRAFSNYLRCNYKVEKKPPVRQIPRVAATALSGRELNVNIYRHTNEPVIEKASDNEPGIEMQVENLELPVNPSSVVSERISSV
UniProt O95551, sequence (whole entry, looked up): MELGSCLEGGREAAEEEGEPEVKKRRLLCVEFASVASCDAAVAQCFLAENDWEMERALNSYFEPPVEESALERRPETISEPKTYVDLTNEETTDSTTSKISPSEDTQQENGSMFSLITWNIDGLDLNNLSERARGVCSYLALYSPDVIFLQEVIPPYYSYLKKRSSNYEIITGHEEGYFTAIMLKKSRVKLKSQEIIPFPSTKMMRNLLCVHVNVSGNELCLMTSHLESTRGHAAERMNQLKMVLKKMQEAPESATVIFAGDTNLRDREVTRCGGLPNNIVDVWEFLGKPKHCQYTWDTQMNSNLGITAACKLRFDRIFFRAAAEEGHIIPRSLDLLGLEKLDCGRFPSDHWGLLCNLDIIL
UniProt P35363, sequence (whole entry, looked up): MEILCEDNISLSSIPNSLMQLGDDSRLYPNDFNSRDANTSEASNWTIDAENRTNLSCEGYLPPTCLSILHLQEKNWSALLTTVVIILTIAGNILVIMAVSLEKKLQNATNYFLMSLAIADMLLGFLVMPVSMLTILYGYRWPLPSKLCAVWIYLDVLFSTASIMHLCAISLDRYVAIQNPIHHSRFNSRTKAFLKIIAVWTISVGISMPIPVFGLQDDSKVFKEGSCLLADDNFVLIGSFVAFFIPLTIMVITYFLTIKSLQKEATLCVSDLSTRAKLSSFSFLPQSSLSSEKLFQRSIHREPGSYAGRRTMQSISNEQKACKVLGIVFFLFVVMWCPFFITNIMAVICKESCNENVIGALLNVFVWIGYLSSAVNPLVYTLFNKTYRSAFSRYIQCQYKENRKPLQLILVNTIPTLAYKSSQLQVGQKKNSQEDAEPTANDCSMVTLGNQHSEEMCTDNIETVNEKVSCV

Structure (SMILES)	tested on	assay	system	conditions	endpoint	value
[2H]c1c([2H])c([C@]2([2H])CCCN2C(=O)C(C)(C)Oc2ccc3cn[nH]c3c2)c([2H])c([2H])c1C([2H])([2H])[2H]	eIF-2-alpha kinase GCN2, C-terminal kinase domain (EIF2AK4, Homo sapiens, UniProt Q9P2K8, S808G)	binding, competition with immobilised ligand		1 µM	remaining binding	100%
O=C(Nc1ccc2c(c1)C=CCP(=O)(O)O2)c1ccccc1	CA12	enzyme activity, inhibitor, stopped-flow			Ki	0.0073 µM
COc1cc(CCNCc2ccccc2OC)c(OC)cc1Br	5-hydroxytryptamine receptor 2C (Htr2c, Mus musculus, UniProt P34968)	G protein activation, agonist, BRET			EC50	0.000182 µM
CN(C)c1ncnc2c1ncn2[C@@H]1O[C@H](CCl)[C@@H](NC(=O)[C@@H](CSC(c2ccccc2)c2ccccc2)NC(=O)OC(C)(C)C)[C@H]1O	Puromycin-sensitive aminopeptidase (Homo sapiens, UniProt P55786)	enzyme activity, inhibitor, fluorescence			IC50	6.7 µM
Cc1cc(NC(=O)c2cc(S(=O)(=O)N3CCCCC3)ccc2C)no1	Dihydroorotate dehydrogenase (quinone), mitochondrial (PFF0160c, Plasmodium falciparum, UniProt Q08210, E182D)	enzyme activity, inhibitor, absorbance			IC50	4.85 µM
Nc1ncc(-c2nc(N3CCOCC3)nc(N3CCOCC3)n2)c(C(F)F)n1	Serine/threonine-protein kinase N2 (PKN2, Homo sapiens, UniProt Q16513)	binding, competition with immobilised ligand		10 µM	remaining binding	100%
COc1ncccc1-c1cnn2ccc(N3CCN(C(=O)OC(C)C)CC3)nc12	Serine/threonine-protein kinase 32A (STK32A, Homo sapiens, UniProt Q8WU08)	binding, competition with immobilised ligand		1 µM	remaining binding	94%
COc1cc(CCNC(C)c2ccccc2O)c(OC)cc1C#N (stereo not shown)	5-hydroxytryptamine receptor 2A (Htr2a, Mus musculus, UniProt P35363)	G protein activation, agonist, BRET			EC50	0.0138 µM
Cc1ccc(NC(=O)Nc2ccc3c(c2)C=CCP(=O)(O)O3)cc1	CA12	enzyme activity, inhibitor, stopped-flow			Ki	> 10 µM
Cc1nn(C)cc1-c1nc2c(N3CCN(Cc4ccc(Cl)cc4)CC3)c(Cl)cnc2[nH]1	Mitogen-activated protein kinase kinase kinase 1 (MAP3K1, Homo sapiens, UniProt Q13233)	binding, competition with immobilised ligand		1 µM	remaining binding	100%
COC(=O)c1cc(-c2cccc(NC(=S)Nc3ccc(F)cc3)c2)on1	Pseudomonas aeruginosa	microbial growth, broth dilution	ATCC27853		MIC	> 64 µg/mL
C#Cc1n[nH]c2c(-c3cn(C(C)c4ccccn4)c(=O)[nH]c3=O)cc(F)cc12 (stereo not shown)	Receptor tyrosine-protein kinase erbB-4 (ERBB4, Homo sapiens, UniProt Q15303)	enzyme activity, inhibitor		1 µM	inhibition	0.9%
Cc1cc(Nc2ccc(C)c(C)c2)n2nc(C)nc2n1	PFF0160c	enzyme activity, inhibitor, absorbance			IC50	> 10 µM
NCCc1ccc(Oc2ccc(O)cc2)c(I)c1	Sodium-dependent dopamine transporter (Slc6a3, Mus musculus, UniProt Q61327)	transporter uptake, inhibitor, radiometric			IC50	1.4 µM
Cc1ccc(C(=O)Nc2ccc(F)c(F)c2F)cc1S(=O)(=O)N1CCCCC1	PFF0160c	enzyme activity, inhibitor, absorbance			IC50	0.708 µM
Cc1ccc(C(=O)Nc2ccc3c(c2)C=CCP(=O)(O)O3)cc1	Carbonic anhydrase 2 (CA2, Homo sapiens, UniProt P00918)	enzyme activity, inhibitor, stopped-flow			Ki	> 10 µM
CS(=O)(=O)c1ccc2nc(-c3ccccc3)c(Nc3ccc(C(=O)O)cc3)n2c1	Tyrosyl-DNA phosphodiesterase 2 (TDP2, Homo sapiens, UniProt O95551)	enzyme activity, inhibitor, fluorescence			IC50	80 µM
O=C(Nc1cccc(CN2CCN(C(=O)c3cccc(Cl)c3)CC2)c1)c1ccco1	PFF0160c	enzyme activity, inhibitor, absorbance			IC50	4.06 µM
CNC(C)Cc1ccc2c(c1)OCO2 (stereo not shown)	Solute carrier family 22 member 1 (SLC22A1, Homo sapiens, UniProt O15245)	transporter uptake, inhibitor			IC50	2.15 µM
COc1cc(CCNC(C)c2ccccc2)c(OC)cc1C#N (stereo not shown)	5-hydroxytryptamine receptor 2C (HTR2C, Homo sapiens, UniProt P28335)	G protein activation, agonist, BRET			EC50	1.6 µM
CCCn1c(O)nnc1SCC(=O)Nc1cc(C(F)(F)F)ccc1Cl	PFF0160c	enzyme activity, inhibitor, absorbance			IC50	0.624 µM
N.N.[Cl][Pt][Cl]	HuT78	cell growth or viability, ATP luminescence		10 µM, 72 h	inhibition	93%

Some of these lines once more:
Structure (SMILES)	tested on	assay	system	conditions	endpoint	value
COc1cc(CCNC(C)c2ccccc2O)c(OC)cc1C#N (stereo not shown)	5-hydroxytryptamine receptor 2A (Htr2a, Mus musculus, UniProt P35363)	G protein activation, agonist, BRET			EC50	0.0138 µM
Cc1ccc(NC(=O)Nc2ccc3c(c2)C=CCP(=O)(O)O3)cc1	CA12	enzyme activity, inhibitor, stopped-flow			Ki	> 10 µM
Cc1nn(C)cc1-c1nc2c(N3CCN(Cc4ccc(Cl)cc4)CC3)c(Cl)cnc2[nH]1	Mitogen-activated protein kinase kinase kinase 1 (MAP3K1, Homo sapiens, UniProt Q13233)	binding, competition with immobilised ligand		1 µM	remaining binding	100%
